# Measured values pooled from the literature.
# Numbered parts are unrelated; each lists some results of a single study. “And” joins repeats or separate records; there may be more than shown. pIC50: −log10 of the molar value.

# Study 1
# Target: NUAK family SNF1-like kinase 2 (NUAK2, Homo sapiens, UniProt Q9H093)
# Sequence of UniProt Q9H093 (whole entry, looked up): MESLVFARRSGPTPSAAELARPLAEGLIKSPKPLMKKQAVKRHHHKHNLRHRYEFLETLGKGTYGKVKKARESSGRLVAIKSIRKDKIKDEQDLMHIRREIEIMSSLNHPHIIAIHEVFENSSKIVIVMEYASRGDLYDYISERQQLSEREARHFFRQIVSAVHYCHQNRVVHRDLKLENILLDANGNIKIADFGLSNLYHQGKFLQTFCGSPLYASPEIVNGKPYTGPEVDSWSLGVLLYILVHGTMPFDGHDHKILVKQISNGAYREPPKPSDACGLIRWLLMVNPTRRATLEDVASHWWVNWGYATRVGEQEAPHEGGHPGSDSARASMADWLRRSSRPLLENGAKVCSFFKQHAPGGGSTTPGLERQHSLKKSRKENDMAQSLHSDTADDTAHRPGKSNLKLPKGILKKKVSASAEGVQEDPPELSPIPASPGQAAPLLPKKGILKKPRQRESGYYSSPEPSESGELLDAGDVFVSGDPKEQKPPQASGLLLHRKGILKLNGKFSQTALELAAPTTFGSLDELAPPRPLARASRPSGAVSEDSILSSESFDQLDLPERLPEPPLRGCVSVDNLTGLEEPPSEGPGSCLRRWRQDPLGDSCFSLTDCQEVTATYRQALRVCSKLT
# Effect on: enzyme activity
# Mode: inhibitor
# Tested at: 0.5 µM
# Reference: control
Compound,remaining activity
Cc1ccc(NC(=O)c2ccc(CN3CCN(C)CC3)cc2)cc1Nc1nccc(-c2cccnc2)n1,98.6%
Cc1nc(Nc2ncc(C(=O)Nc3c(C)cccc3Cl)s2)cc(N2CCN(CCO)CC2)n1,101%
COc1cc2ncnc(N3CCN(C(=O)Nc4ccc(Oc5ccccc5)cc4)CC3)c2cc1OC,77.4%
CC(=O)O/N=C1/C(c2c(O)[nH]c3cc(Br)ccc23)=Nc2ccccc21,85.2%
CC(C)[C@H](CO)Nc1nc(Nc2cccc(Cl)c2)c2ncn(C(C)C)c2n1,134%
Nc1[nH]nc2nnc(-c3c(-c4ccccc4)nn4ccccc34)cc12,87.3%
COc1cc2ncc(-c3ccccc3)nc2cc1OC,133%
CS(=O)(=O)CCNCc1ccc(-c2ccc3ncnc(Nc4ccc(OCc5cccc(F)c5)c(Cl)c4)c3c2)o1,95.1%
CN(C)CCCn1cc(C2=C(c3c[nH]c4ccccc34)C(=O)NC2=O)c2ccccc21,66%
COc1cc2ncnc(Nc3ccc(OCc4ccccc4)cc3)c2cc1OC,102%
C[S+]([O-])c1ccc(-c2nc(-c3ccncc3)c(-c3ccc(F)cc3)[nH]2)cc1 (stereo not shown),131%
O=c1cc(N2CCOCC2)oc2c1ccc1ccccc12,120%
COc1ccc(-c2cnc3c(-c4ccsc4)cnn3c2)cc1,138%
O=C(Nc1ccc(Cl)cc1)c1ccccc1NCc1ccncc1,137%
Cn1cc(/C=C2\C(=O)Nc3ccc(S(N)(=O)=O)cc32)c2ccccc21,102%
CC(C)c1nn(-c2c(Cl)cccc2Cl)c2nc(Cc3ccc(OCCO)cc3)[nH]c(=O)c12,91.7%
O=C1NC(=O)/C(=C/c2ccc3nccnc3c2)S1,76%
CCOc1cc2ncnc(Nc3cccc(Br)c3)c2cc1OCC,89.7%
CCC(=O)Nc1ccc2ncnc(Nc3cccc(Br)c3)c2c1,77.4%
Cn1cnc2cc3c(Nc4cccc(Br)c4)ncnc3cc21,102%
CCN1/C(=C/C(C)=O)Sc2ccc(OC)cc21,107%
COc1ccc(Cl)cc1NC(=O)Nc1cc(C)nc2ccccc12,100%

# Study 2
# Cell line: normal organoid sample E
# Method: CellTiter-Glo
# Species: human
# Matrix: normal-adjacent epithelium
# Tested at: 1 µM
# Reference: DMSO
SMILES,viability
C[C@@H](NC(=O)Nc1cc2[nH]ncc2c(CO)n1)c1ccccc1,66.4% and 58.7%
CCC(=O)N[C@@H]1CC[C@H](C(=O)N(C)c2ccc(-c3nc4ccccc4o3)cc2)C1,93.7% and 75.5%
Cn1cncc1[C@@](O)(COc1ccc(C#N)cc1-c1ccc(OC(F)(F)F)cc1)c1ccc(C#N)cc1,72.6% and 100%
Cc1nc(C2CCN(C(=O)c3ccc(OC(F)(F)F)cc3N)CC2)c2ncc(N3CCN(C)CC3)cc2n1,120% and 106%
Cc1cn(-c2cc(NC(=O)c3ccc4c(c3)CN(c3cncnc3)C[C@@H]4C)cc(C(F)(F)F)c2)cn1,200% and 119%
CN1CCN(c2cnc3c(C4CCN(C(=O)c5ccc(OC(F)(F)F)cc5N)CC4)ncnc3c2)CC1,94.9% and 97.7%
C[C@H](c1cccc(C#N)c1)n1cc(Cl)cc(C(N)=O)c1=N,111% and 120%
CO[C@H]1CC[C@H](CNc2ccc(S(=O)(=O)NC(=O)c3ccc(N4CCN(CC5=C(c6ccc(Cl)cc6)CC(C)(C)CC5)CC4)cc3Oc3cnc4[nH]ccc4c3)cc2[N+](=O)[O-])CC1,70.3% and 76.5%
Cn1cnc2c(F)c(Nc3ccc(Br)cc3Cl)c(C(=O)NOCCO)cc21,98.2% and 66.3%

# Study 3
# Target: DNA polymerase theta, ATPase domain (POLQ, Homo sapiens, UniProt O75417)
# Sequence of UniProt O75417 (whole entry, unmodified, looked up): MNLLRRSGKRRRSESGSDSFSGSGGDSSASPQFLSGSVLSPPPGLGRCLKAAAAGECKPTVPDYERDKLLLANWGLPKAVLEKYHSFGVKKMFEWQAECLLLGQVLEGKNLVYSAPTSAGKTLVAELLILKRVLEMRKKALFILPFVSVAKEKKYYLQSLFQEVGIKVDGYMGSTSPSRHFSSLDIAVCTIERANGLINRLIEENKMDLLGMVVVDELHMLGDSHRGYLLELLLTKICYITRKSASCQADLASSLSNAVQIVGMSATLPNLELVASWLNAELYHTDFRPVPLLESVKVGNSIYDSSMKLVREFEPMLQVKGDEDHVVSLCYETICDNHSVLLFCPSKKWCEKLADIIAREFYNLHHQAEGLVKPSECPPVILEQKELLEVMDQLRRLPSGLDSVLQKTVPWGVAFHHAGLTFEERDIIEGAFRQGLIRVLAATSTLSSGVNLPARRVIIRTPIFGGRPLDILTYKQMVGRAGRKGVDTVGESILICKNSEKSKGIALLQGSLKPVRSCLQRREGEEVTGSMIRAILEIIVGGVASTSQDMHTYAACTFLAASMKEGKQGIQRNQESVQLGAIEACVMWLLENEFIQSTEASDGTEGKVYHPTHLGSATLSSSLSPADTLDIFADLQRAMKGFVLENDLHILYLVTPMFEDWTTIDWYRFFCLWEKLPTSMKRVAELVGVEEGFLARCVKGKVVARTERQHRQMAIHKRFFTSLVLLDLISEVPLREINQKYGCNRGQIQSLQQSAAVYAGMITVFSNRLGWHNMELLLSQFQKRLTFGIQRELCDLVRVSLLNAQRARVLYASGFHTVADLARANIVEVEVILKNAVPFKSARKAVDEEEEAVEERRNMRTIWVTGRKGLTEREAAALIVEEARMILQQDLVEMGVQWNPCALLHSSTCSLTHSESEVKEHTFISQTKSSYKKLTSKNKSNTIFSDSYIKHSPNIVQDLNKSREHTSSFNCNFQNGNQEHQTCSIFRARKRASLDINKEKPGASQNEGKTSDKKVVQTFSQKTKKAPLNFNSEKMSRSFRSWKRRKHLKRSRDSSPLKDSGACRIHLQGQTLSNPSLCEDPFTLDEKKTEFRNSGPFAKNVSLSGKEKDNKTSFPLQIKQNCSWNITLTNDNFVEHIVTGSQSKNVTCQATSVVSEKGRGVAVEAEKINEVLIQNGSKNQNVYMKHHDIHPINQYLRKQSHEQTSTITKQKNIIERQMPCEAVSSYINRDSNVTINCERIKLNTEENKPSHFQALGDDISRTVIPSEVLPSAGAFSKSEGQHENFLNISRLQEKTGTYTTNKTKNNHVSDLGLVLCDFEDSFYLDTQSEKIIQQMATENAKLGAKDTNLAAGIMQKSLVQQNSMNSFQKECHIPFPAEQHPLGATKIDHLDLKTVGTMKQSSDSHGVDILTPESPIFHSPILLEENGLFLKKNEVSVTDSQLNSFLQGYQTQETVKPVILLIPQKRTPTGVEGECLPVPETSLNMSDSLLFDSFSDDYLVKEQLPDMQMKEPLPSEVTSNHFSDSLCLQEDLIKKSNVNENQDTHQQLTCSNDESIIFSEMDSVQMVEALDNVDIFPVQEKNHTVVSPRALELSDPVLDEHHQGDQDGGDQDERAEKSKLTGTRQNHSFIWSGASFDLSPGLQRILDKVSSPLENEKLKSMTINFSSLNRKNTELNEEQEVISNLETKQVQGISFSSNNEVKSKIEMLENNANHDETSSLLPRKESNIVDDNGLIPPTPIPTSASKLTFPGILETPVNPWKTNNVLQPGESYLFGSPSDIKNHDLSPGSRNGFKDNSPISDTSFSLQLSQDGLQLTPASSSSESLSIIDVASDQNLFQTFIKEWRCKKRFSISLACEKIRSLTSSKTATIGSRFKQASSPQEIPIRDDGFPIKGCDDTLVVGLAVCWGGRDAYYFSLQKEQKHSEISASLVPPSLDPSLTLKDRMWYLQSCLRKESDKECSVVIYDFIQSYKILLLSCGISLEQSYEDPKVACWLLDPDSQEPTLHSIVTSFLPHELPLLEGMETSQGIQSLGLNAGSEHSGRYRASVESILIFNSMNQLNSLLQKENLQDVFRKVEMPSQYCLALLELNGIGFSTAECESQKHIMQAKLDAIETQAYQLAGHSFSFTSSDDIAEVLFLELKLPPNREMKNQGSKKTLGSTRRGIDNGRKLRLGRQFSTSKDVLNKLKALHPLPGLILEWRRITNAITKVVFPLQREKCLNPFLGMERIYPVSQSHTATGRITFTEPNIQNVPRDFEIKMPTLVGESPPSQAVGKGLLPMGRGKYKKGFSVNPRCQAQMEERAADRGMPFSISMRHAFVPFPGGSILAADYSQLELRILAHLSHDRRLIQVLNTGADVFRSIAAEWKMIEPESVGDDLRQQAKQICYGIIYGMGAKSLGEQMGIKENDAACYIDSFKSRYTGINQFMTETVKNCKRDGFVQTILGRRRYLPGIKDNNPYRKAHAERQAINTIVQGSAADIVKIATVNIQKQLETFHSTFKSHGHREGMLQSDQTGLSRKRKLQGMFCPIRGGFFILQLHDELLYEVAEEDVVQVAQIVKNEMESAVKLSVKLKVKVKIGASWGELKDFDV
# Effect on: enzyme activity
# Mode: inhibitor
# Tested at: 77 µM
# Reference: untreated
SMILES,remaining activity
Cn1cnc2c1c(=O)[nH]c(=O)n2C,93.4%
CC1(C)S[C@@H]2[C@H](NC(=O)[C@H](C(=O)O)c3ccsc3)C(=O)N2[C@H]1C(=O)O,102% and 105%
Cc1cccc(C)c1OCC(=O)N[C@@H](Cc1ccccc1)[C@@H](O)C[C@H](Cc1ccccc1)NC(=O)[C@H](C(C)C)N1CCCNC1=O,100%
CC(Cc1cccc(C(F)(F)F)c1)NCCOC(=O)c1ccccc1 (stereo not shown),104%
CN1CCC(CNc2ccc3ncc(-c4cccc(OC(F)(F)F)c4)n3n2)CC1,73.6%
NC(=O)N/N=C/c1ccc([N+](=O)[O-])o1,80.9% and 106%
Nc1nccc(Oc2ccc(NC(=O)c3c[nH]cc(-c4ccc(F)cc4)c3=O)cc2F)c1Cl,97.9%
NC(=O)C(=O)O,102%
CCOC(=O)O[C@]1(C(=O)OCCl)CC[C@H]2[C@@H]3CCC4=CC(=O)C=C[C@]4(C)[C@H]3[C@@H](O)C[C@@]21C,102%
CCCCC(=O)N(Cc1ccc(-c2ccccc2-c2nnn[nH]2)cc1)[C@H](C(=O)O)C(C)C,91.4%
CC[C@H]1OC(=O)[C@H](C)[C@@H](O[C@H]2C[C@@](C)(OC)[C@@H](O)[C@H](C)O2)[C@H](C)[C@@H](O[C@@H]2O[C@H](C)C[C@H](N(C)C)[C@H]2O)[C@](C)(O)C[C@@H](C)/C(=N\OCOCCOC)[C@H](C)[C@@H](O)[C@]1(C)O,101% and 98.7%
O=C(Nc1cccc(Cl)c1)c1ccccn1,75.6%
COc1cc(OC)cc(-c2cc3cnc(N)nc3nc2NC(=O)NC(C)(C)C)c1,101%
O=C(c1cn(Cc2cncn2Cc2ccc(Br)cc2)cc1-c1cccc2ccccc12)N1CCOCC1,102%
Cc1cccc(C)c1NC(=O)C1CCCCN1C (stereo not shown),97.7%
COC(=O)[C@H](Cc1ccccc1)NC(=O)[C@@H](N)CC(=O)O,75.5%
C[C@@H](O)[C@H]1C(=O)N2C(C(=O)O)=C(S[C@@H]3CN[C@H](C(=O)N(C)C)C3)[C@H](C)[C@H]12,101% and 95.7%

# Study 4
# Target: Beta-1 adrenergic receptor (ADRB1, Homo sapiens, UniProt P08588)
# Sequence of UniProt P08588 (whole entry, looked up): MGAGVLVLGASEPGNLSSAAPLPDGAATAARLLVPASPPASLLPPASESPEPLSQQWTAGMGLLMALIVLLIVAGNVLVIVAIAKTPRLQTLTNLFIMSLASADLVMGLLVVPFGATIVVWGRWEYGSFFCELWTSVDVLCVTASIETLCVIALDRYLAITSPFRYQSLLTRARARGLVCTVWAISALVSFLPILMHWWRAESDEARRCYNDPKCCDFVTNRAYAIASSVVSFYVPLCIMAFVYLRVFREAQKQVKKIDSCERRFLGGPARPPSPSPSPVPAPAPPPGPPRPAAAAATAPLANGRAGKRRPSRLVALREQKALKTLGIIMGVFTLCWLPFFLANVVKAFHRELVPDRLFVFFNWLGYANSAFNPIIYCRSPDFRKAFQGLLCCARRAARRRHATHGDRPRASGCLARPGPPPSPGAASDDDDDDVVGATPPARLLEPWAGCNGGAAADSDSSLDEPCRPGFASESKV
# Mode: antagonist
Compound,pIC50
CC(CNc1cc(-c2ccccc2)c2ccccc2n1)N1CCOCC1 (stereo not shown),≤ 4.00
COc1ccccc1N1CCN([S+](=O)([O-])c2ccc(C)cc2)CC1,≤ 4.00
NCC(Cc1ccc(O)cc1)c1ccc(O)cc1 (stereo not shown),≤ 4.00
Cc1c(CN2CCC(Nc3ncnc4sc(CC(F)(F)F)cc34)CC2)ccc2c1cc(C#N)n2Cc1cn[nH]c1,≤ 4.00
O=C(Nc1cccc(Cl)c1)N1CCN(c2cc(N3CCOCC3)cnn2)CC1,≤ 4.00
CCn1ncc(NC(=O)Cn2ncc3cc(-c4ccc(N(C)C)cc4)ccc32)n1,≤ 4.00
CN(Cc1ccc(F)cc1)c1ccc2ncc(Nc3cccc(O)c3)n2n1,≤ 4.00
O=C1OC2(c3ccc(O)cc3Oc3cc(O)ccc32)c2ccc(N=C=S)cc21,4.50
Cn1cc(-c2cnc(NC(=O)Cc3ccc(F)cc3)c3c2CCO3)cn1,≤ 4.00
O=C1NCC2(CCN(Cc3ccsc3)CC2)Oc2ccccc21,≤ 4.00
Cn1cc(-c2cnc(Nc3ccc(F)cc3)c3c2CCO3)cn1,≤ 4.00
COc1ccccc1N1CCN([S+](=O)([O-])c2ccc(OC(F)(F)F)cc2)CC1,≤ 4.00
Cc1ccc(-c2cc(-c3cccnc3)nc3c(C)noc23)c(C)c1,≤ 4.00
O=C(Nc1ccc([C@@H](O)[C@H]2COCC(=O)N2CCCc2ccccc2)cc1)C1CCC1,≤ 4.00
Cc1noc2c(N(C)C)cc(-c3cccnc3)nc12,≤ 4.00
COc1ccc2c(C)cc(=O)oc2c1,≤ 4.00

# Repeated from above (study 4):
Compound,pIC50
O=C(Nc1cccc(Cl)c1)N1CCN(c2cc(N3CCOCC3)cnn2)CC1,≤ 4.00
CCn1ncc(NC(=O)Cn2ncc3cc(-c4ccc(N(C)C)cc4)ccc32)n1,≤ 4.00
CN(Cc1ccc(F)cc1)c1ccc2ncc(Nc3cccc(O)c3)n2n1,≤ 4.00
O=C1OC2(c3ccc(O)cc3Oc3cc(O)ccc32)c2ccc(N=C=S)cc21,4.50
Cn1cc(-c2cnc(NC(=O)Cc3ccc(F)cc3)c3c2CCO3)cn1,≤ 4.00
O=C1NCC2(CCN(Cc3ccsc3)CC2)Oc2ccccc21,≤ 4.00
Cn1cc(-c2cnc(Nc3ccc(F)cc3)c3c2CCO3)cn1,≤ 4.00
COc1ccccc1N1CCN([S+](=O)([O-])c2ccc(OC(F)(F)F)cc2)CC1,≤ 4.00
Cc1ccc(-c2cc(-c3cccnc3)nc3c(C)noc23)c(C)c1,≤ 4.00
O=C(Nc1ccc([C@@H](O)[C@H]2COCC(=O)N2CCCc2ccccc2)cc1)C1CCC1,≤ 4.00
